Assay results from different studies.
“And” joins repeats or separate records; there may be more than shown. ± gives the spread as reported.

| SMILES | tested on | test | test system | conditions | scale | quantity | value |
| --- | --- | --- | --- | --- | --- | --- | --- |
| CCN(C(=O)c1cc(F)ccc1Oc1nncnc1N1CCC2(C1)CN([C@H](CCCN(C)CCOC)C(C)C)C2)C(C)C | A-431 | cell growth or viability |  | 72 h |  | GI50 | > 10 µM |
| O=C(C[Se]C(=O)c1ccccc1Nc1cccc(C(F)(F)F)c1)Nc1cccc(C(F)(F)F)c1 | NCI60 prostate subpanel (PC-3, DU-145) | total growth inhibition, inhibitor |  | five-dose |  | mean TGI | 3.6 µM |
| Cc1cccc(-c2cccc(C)n2)n1.Cc1cccc(-c2cccc(C)n2)n1.F[P-](F)(F)(F)(F)F.F[P-](F)(F)(F)(F)F.[Ru+2].c1ccc2c(-c3nc4c5cccnc5c5ncccc5c4[nH]3)c3ccccc3cc2c1 | SK-MEL-28 | cell viability |  | dark, 1% O2 |  | EC50 | 104 ± 9 µM |
| Cc1ncsc1-c1ccc(C(C)NC(=O)C2CC(O)CN2C(=O)C(NC(=O)CCCCCCCCCCN2CCCC(Nc3ncc(Cl)c(Nc4ccccc4S(=O)(=O)C(C)C)n3)C2)C(C)(C)C)cc1 (stereo not shown) | 22Rv1 | RNA-seq, measured: ZC3H4 mRNA |  | concentration not given | relative to: DMSO | log2 fold change | -2.53 |
| CN1CCCNC(=O)c2cccc(c2)C(=O)NCCCN(C)CCCNc2cccc3c2C(=O)c2cccc(c2C3=O)NCCC1 | SAS | RNA-Seq, measured: RPF2 mRNA |  | 1 µM, 6 h | relative to: untreated cells | log2 fold change | -0.598 |
| CN1CCN(C(=O)c2ccc(-c3cc4c(N5CCC[C@H](C(=O)NCc6ccc(OC(F)(F)F)cc6)C5)ncnc4[nH]3)cc2)CC1 | NCI-H3122 | cell growth or viability, MTT |  | 5 µg/mL, 72 h |  | inhibition | 82.1% |
| Cc1cc(Cl)cc(-c2ccnc3cc(CN4C(=O)C5C(C4=O)C5(C)C)sc23)c1C[C@@H]1CNCCO1 (stereo partly shown) | CHP-212 resistant subline R3 | annexin V/PI flow cytometry |  | 1 µM, 48 h |  | late apoptotic cells | 7.66% and 14.6% and 10.2% |
| CNS(=O)(=O)Nc1nccc(Cc2c(C)c3ccc(Oc4ncccc4F)cc3oc2=O)c1F | BT-474 | cell viability |  | 7 days |  | IC50 | > 1 µM |
| CNc1ncnc2c1ncn2C1OC(CO)C(O)C1O (stereo not shown) | mock-transfected cells | TGFα shedding, agonist |  | 100 µM | relative to: unstimulated vehicle control | AP-TGFα release | 3.76% and 4.09% and 3.91% |
| O=C(C[Se]C(=O)c1ccc2ccccc2n1)Nc1cccc(C(F)(F)F)c1 | NCI60 prostate subpanel (PC-3, DU-145) | total growth inhibition, inhibitor |  | five-dose |  | mean TGI | 3.49 µM |
| Cc1cccc(-c2cccc(C)n2)n1.Cc1cccc(-c2cccc(C)n2)n1.F[P-](F)(F)(F)(F)F.F[P-](F)(F)(F)(F)F.[Ru+2].c1ccc(-c2nc3c4cccnc4c4ncccc4c3[nH]2)cc1 | SK-MEL-28 | cell viability |  | normoxia, added: blue light 453 nm, 100 J/cm2 |  | EC50 | 14.2 ± 0.9 µM |
| COc1ccccc1-c1ccncc1C(=O)Nc1nnc(OCc2ccc(Cl)cc2)s1 | DLD-1 BRCA2-/- |  |  | 4 µM, single replicate |  | colony count | 8 and 17 and 19 and 11 and 5 and 6 |
| CSCC[C@H](NC(=O)[C@H](CCC(N)=O)NC(=O)[C@H](CCCCN)NC(=O)[C@H](CCCNC(=N)N)NC(=O)[C@H](Cc1ccc(O)cc1)NC(=O)[C@H](CCCNC(=N)N)NC(=O)[C@H](CO)NC(=O)[C@H](Cc1ccc(O)cc1)NC(=O)[C@H](CO)NC(=O)[C@H](CC(=O)O)NC(=O)[C@@H](NC(=O)[C@@H](N)Cc1ccccc1)[C@@H](C)O)C(=O)N[C@@H](C)C(=O)N[C@H](C(=O)N[C@@H](CCCCN)C(=O)N[C@@H](CCCCn1cc(C[C@H](NC(=O)CNC(=O)[C@H](CO)NC(=O)[C@H](CCCNC(=N)N)NC(=O)[C@H](CO)NC(=O)[C@H](CC(C)C)NC(=O)[C@H](CC(C)C)NC(=O)CNC(=O)[C@H](C)NC(=O)[C@H](CC(C)C)NC(=O)[C@H](CCCNC(=N)N)NC(=O)[C@H](Cc2c[nH]cn2)NC(=O)[C@@H](NC(=O)[C@@H](N)C(C)C)[C@@H](C)O)C(=O)N[C@H](C(=O)N[C@H](C(=O)N[C@@H](CCCCN)C(=O)N[C@@H](CC(N)=O)C(=O)N[C@@H](CC(N)=O)C(=O)N[C@@H](Cc2ccccc2)C(=O)N[C@H](C(=O)N2CCC[C@H]2C(=O)N[C@H](C(=O)N[C@@H](CC(N)=O)C(=O)N[C@H](C(=O)NCC(=O)N[C@@H](CO)C(=O)N[C@@H](CCCCN)C(=O)N[C@@H](C)C(=O)N[C@@H](Cc2ccccc2)C(N)=O)C(C)C)[C@@H](C)O)C(C)C)C(C)C)C(C)C)nn1)C(=O)N[C@@H](Cc1ccc(O)cc1)C(=O)N[C@@H](CC(C)C)C(=O)N[C@@H](C)C(=O)N[C@@H](C)C(=O)N[C@H](C(=O)N[C@@H](CC(C)C)C(=O)NCC(=O)N[C@@H](CCCCN)C(=O)N[C@@H](CCCNC(=N)N)C(=O)N[C@@H](Cc1ccc(O)cc1)C(=O)N[C@@H](CCCCN)C(=O)N[C@@H](CCC(N)=O)C(=O)N[C@@H](CCCNC(=N)N)C(=O)N[C@H](C(=O)N[C@@H](CCCCN)C(=O)N[C@@H](CC(N)=O)C(=O)N[C@@H](CCCCN)C(N)=O)C(C)C)C(C)C)C(C)C | transfected COS-7 cells | cAMP accumulation, antagonist |  | added: PACAP-27 |  | A2 | 4.9 µM |
| Cc1cc(NC2CCN(C)CC2)ccc1-c1cc2c(N3CCC[C@H](C(=O)N[C@H](C)c4ccccc4)C3)ncnc2[nH]1 | NCI-H3122 | cell growth or viability, MTT |  | 5 µg/mL, 72 h |  | inhibition | 89% |
| CO[C@@H]1[C@@H](OC(N)=O)[C@@H](O)[C@H](Oc2ccc3c(O)c(NC(=O)c4ccc(O)c(CC=C(C)C)c4)c(=O)oc3c2C)OC1(C)C | DLD-1 BRCA2-/- |  |  | 50 µM, replicate A | relative to: untreated | colony survival | 28.8% |
| Cn1ncc2cc(-c3cncc(Cl)c3N3CCC4(CCNC4=O)CC3)ccc21 | LS174T | gene expression, microarray, measured: TNFAIP2 mRNA |  | concentration not given, 4 h | relative to: untreated cells | log2 fold change | 1.6 |

| SMILES | tested on | test | test system | conditions | scale | quantity | value |
| --- | --- | --- | --- | --- | --- | --- | --- |
| Cc1cccc(-c2cccc(C)n2)n1.Cc1cccc(-c2cccc(C)n2)n1.F[P-](F)(F)(F)(F)F.F[P-](F)(F)(F)(F)F.[Ru+2].c1ccc2c(c1)Cc1cc(-c3nc4c5cccnc5c5ncccc5c4[nH]3)ccc1-2 | SK-MEL-28 | cell viability |  | 1% O2, added: blue light 453 nm, 100 J/cm2 |  | EC50 | 21.5 ± 0.6 µM |
| CC(C)c1ccc(N(C)c2ccc3c(c2)OCC[C@H]3CNc2cnccc2C(=O)O)cc1 | MeWo | cell viability, CellTiter-Glo |  | 7 days |  | IC50 | ≥ 10 µM |
| CC(C)Cc1ccc(C(C)C(=O)[Se]CC(=O)Nc2cccc(C(F)(F)F)c2)cc1 (stereo not shown) | NCI60 prostate subpanel (PC-3, DU-145) | cell growth |  | 10 µM, 48 h, one-dose |  | mean growth percent | -80.5% |
| [Cl-].[Cl-].[Ru+2].c1ccc(-c2ccccn2)nc1.c1ccc(-c2ccccn2)nc1.c1ccc2cc3nc4c5cccnc5c5ncccc5c4nc3cc2c1 | SK-MEL-28 | photocytotoxicity |  | visible light 400-700 nm, 100 J/cm2, oxygen 1% |  | EC50 | 117 ± 2 µM |
| COc1ccc(NC(=O)c2ccc3[nH]c(-c4ccc(N(C)C)cc4)nc3c2)cn1 | ZR-75-1 | cell growth, CellTiter-Glo |  |  |  | GI50 | > 30 µM |
| C#CCOC(=O)[C@@]1(C)C=C(C(=O)Nc2cccc(C(=O)Nc3ccc(C)c(Nc4nccc(-c5cccnc5)n4)c3)c2)C(=O)CC1 | SH-SY5Y MKK7 active | western blot, measured: phospho-c-Jun Ser73 |  | 30 µM, unit not given | relative to: doxycycline without inhibitor | phospho-c-Jun level | 0.104 |
| COC(=O)c1cc(NC2=NC(=O)C(=Cc3ccc(C)cc3)S2)ccc1OC(C)=O | MCF7 | GC-MS, measured: 1-Monopalmitin |  | 1 µM | relative to: DMSO | metabolite level | -0.48 fold change |
| CCN(CC)CC(=O)Nc1cccc(-n2cc(-c3ccc4ccc(-c5cn(-c6cccc(NC(=O)CN(CC)CC)c6)nn5)cc4c3)nn2)c1 | RCC4 | PCR angiogenesis array, measured: MMP9 |  | 5 x IC50, 6 h, normoxia | relative to: untreated | fold regulation | -1.33 |
| CCC(=CCc1c(O)cc2c(c1O)C(=O)CC(c1ccc(O)cc1)O2)CC (stereo not shown) | HeLa | annexin V/PI staining |  | 48 µM, 48 h |  | early apoptotic cells | 0.12 ± 0.01% |
| COC(=O)c1cc(NC2=NC(=O)C(=Cc3ccc(N(C)C)cc3)S2)ccc1OC(C)=O | MCF7 | measured: DDX11 mRNA |  | 0.81 µM (IC50), 24 h | relative to: DMSO | fold change | 0.496 |
| O=C(N1CCCC1)n1cc(-c2ccc(-c3ccccc3)cc2)nn1 | mouse T-cells | N-terminal labelling enrichment, measured: Niban N-terminal peptides |  | 1 nM, 6 h, single tryptic peptide | relative to: DMSO | SILAC ratio | 1.52 and 1.3 and 0.81 |
| Cc1[nH][n+]([Pd-2]([Br])([Br])[n+]2[nH]c(C)c(CSC3CCCCC3)c2C)c(C)c1CSC1CCCCC1 | Jurkat | cytotoxicity |  |  | relative to: IC50 HEK293 over IC50 Jurkat | selectivity index | 4.5 |
| CSC(=S)N/N=C(\C)c1ccc(Nc2nnc(-c3ccc(Cl)cc3)c3ccccc23)cc1 | HepG2 | cell growth or viability, MTT |  | 10 µM, 24 h |  | viability | 7.84% |
| Cc1c(Cl)cccc1Nc1ccccc1C(=O)[Se]CC(=O)Nc1cccc(C(F)(F)F)c1 | NCI60 breast subpanel mean | cell growth |  |  |  | TGI | 4.18 µM |
| COC1CN([C@H]2CC[C@H]([C@@]3(C)Oc4c(Cl)cc(C(=O)NCc5c(SC)cc(C)[nH]c5=O)c(C)c4O3)CC2)C1 |  | RNA-seq, measured: PTPRD | human, whole blood | dose not given, 24 h | relative to: pretreatment baseline | log2 fold change | 2.58 |

Some of these lines once more:
| SMILES | tested on | test | test system | conditions | scale | quantity | value |
| --- | --- | --- | --- | --- | --- | --- | --- |
| CCN(C(=O)c1cc(F)ccc1Oc1nncnc1N1CCC2(C1)CN([C@H](CCCN(C)CCOC)C(C)C)C2)C(C)C | A-431 | cell growth or viability |  | 72 h |  | GI50 | > 10 µM |
| [Cl-].[Cl-].[Ru+2].c1ccc(-c2ccccn2)nc1.c1ccc(-c2ccccn2)nc1.c1ccc2cc3nc4c5cccnc5c5ncccc5c4nc3cc2c1 | SK-MEL-28 | photocytotoxicity |  | visible light 400-700 nm, 100 J/cm2, oxygen 1% |  | EC50 | 117 ± 2 µM |
| Cc1cccc(-c2cccc(C)n2)n1.Cc1cccc(-c2cccc(C)n2)n1.F[P-](F)(F)(F)(F)F.F[P-](F)(F)(F)(F)F.[Ru+2].c1ccc2c(c1)Cc1cc(-c3nc4c5cccnc5c5ncccc5c4[nH]3)ccc1-2 | SK-MEL-28 | cell viability |  | 1% O2, added: blue light 453 nm, 100 J/cm2 |  | EC50 | 21.5 ± 0.6 µM |
| CO[C@@H]1[C@@H](OC(N)=O)[C@@H](O)[C@H](Oc2ccc3c(O)c(NC(=O)c4ccc(O)c(CC=C(C)C)c4)c(=O)oc3c2C)OC1(C)C | DLD-1 BRCA2-/- |  |  | 50 µM, replicate A | relative to: untreated | colony survival | 28.8% |
